Published values collected from several papers.
Each numbered part is a random draw from the data of one study; scales do not carry over between parts. Positions count from the first letter of the parent shown.

Series 1 — target: NFE2L1, bZIP domain (human); technique: DHFR protein complementation; matrix: yeast; relative to: wild-type JUN-FOS pair; direction: higher = stronger binding; quantity: binding fitness
Setting: single substitutions, most at no-binding floor
Parent: JUN, bZIP domain (human); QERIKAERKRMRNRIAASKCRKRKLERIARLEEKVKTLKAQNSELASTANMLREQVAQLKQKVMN; partner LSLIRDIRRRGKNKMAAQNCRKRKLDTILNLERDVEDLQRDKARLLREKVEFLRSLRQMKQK
Change = S43L; result = -1.37 natural log
Change = Q41M; result = -1.49 natural log
Change = E54W; result = -1.35 natural log
Change = L45N; result = -1.49 natural log
Change = A29G; result = -1.49 natural log
Change = K36M; result = -1.34 natural log
Change = L38D; result = -1.53 natural log
Change = S43D; result = -1.58 natural log
Change = I28H; result = -1.43 natural log
Change = V56T; result = -1.36 natural log
Change = T37E; result = -1.57 natural log
Change = T48H; result = -1.47 natural log
Change = L31S; result = -1.4 natural log
Change = S43H; result = -1.43 natural log
Change = K36S; result = -1.47 natural log
Change = L38E; result = -1.53 natural log

Series 2 — technique: RNA Bind-n-Seq; molecule type: RNA; matrix: in vitro; tested at: 365 nM; relative to: no-protein control; direction: higher = stronger binding; quantity: RBNS enrichment (R)
Target: RNA binding protein fox-1 homolog 2, RRM domain, GST-SBP tag (RBFOX2, Homo sapiens, UniProt O43251-10, residues 100-194)
Setting: natural RNA segment, single round, ends assumed
Constant ends, left off below: GGGAGUUCUACAGUCCGACGAUC … UGGAAUUCUCGGGUGCCAA
Target sequence (chain): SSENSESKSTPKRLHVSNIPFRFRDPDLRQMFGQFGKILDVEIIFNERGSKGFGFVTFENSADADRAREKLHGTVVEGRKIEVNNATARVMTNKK
Oligonucleotide = GUCUUGUGCCUAGACCUCACUCCCAGCCCACCAGGGAGCCAAUUUCAGCAUACCAUGCCAAGGCACACCGACCUACCAGCCAAUAACUGUUCUGCCUCUGCCUUGAUACU; result = 0.39
Oligonucleotide = UGCUGAGCUCUUUAAGGAAGGUGGUGCAGAAAGCCGUGCUGUGCUUUCCCUGUGUGGUCUGCCCUCCACCUCUGAGGCCAGCUCAUCAGAUCUGACCUGCCUGAGACAAC; result = 0.265
Oligonucleotide = GCUUUUUUGGGGUAAUUUGAAUUAAUUUUUUAAUGAUUGGGGUUCCAUUUGACUGUUUGCAUUGAGAUUGCAAUGUGCGCAAUUUUUUUUGUAGUUGUGGCAUCUUGUUG; result = 0.987
Oligonucleotide = CAGCCCGUCUCCUGGCCUCCCAAAGGCUUCUGCCACCUCAGCCACUCUGGAGCUGGAUAGACUGAUGGCCUCACUCUCUGACUUCCGCGUUCAAAACCAUGUUCCAGCCU; result = 0.405
Oligonucleotide = GCCUACGUGGUGUCUUCUUCCCAAUAGAGCCUGCAGCCAGCUGGGGUCCUGAGGGCAGAGGGACAAGCAGGGUCCUGGUGCUAUUUGCUCCUUACUGGGGAGGGGAGGGA; result = 0.571
Oligonucleotide = ACAAGACCAGGGAGAAUCCACCCAUGGGCGCCCACCAGGUUCUUAUGGAUGCAAGCAGGAGAAGCUCAACACCCUGCCUCUUGCCAAGACAAGGAAGCCUCACCUGGCUU; result = 2.49
Oligonucleotide = GUAGGCUGCAGUAGGUGUCCUACCUCGAGGCCCUCAGAUGGAGGUAACACAUUAGGAUUGUGGGACACAAGAUCCUCUCUGAACCUCCUGGUUAAGGAACGUUCCUGCAA; result = 0.409
Oligonucleotide = UCUGGACCAAGUAAAGAUGGGUCCGUGGCCCACACUCGGUCAUGUGCUCAGACAACGACUGAUGAAAACGCCCAUGCGGUUUGCAUCGACUGAUAGUGUGUUCUUUCCGG; result = 3
Oligonucleotide = GAGUUUUAAAGUCUGAGUAUUUCAAAUUAUCAGUGUUGCUUUGUGAAGAUAUGUGUGUGUGUAUAUUCAACUUUGAUGGCUUCCGGAUCUGUAAGAUUGUAUGCUGUAUA; result = 22.8
Oligonucleotide = UUUGCUCUUUUUGUUUUUGUUUGUCACCCCUCGAUAAAGAAAGUAUAUUCAUUUGUGUUGCUGGUUCAACCUGCUCUGUCCUGCCCACUCUUUACUUCUGGCUGUUCAAG; result = 1.08
Oligonucleotide = AAAACCUGUGCCCUCAGCCACUUCGAAUGCCAGCCACCUUCUGGUUCUAAAACGGGGAGUGGUCUGAAUGAACACAGCUGACCCCUUUCCCGCGCACUGAAAGGGCAGAG; result = 0.443
Oligonucleotide = AGAGUGGGAGGCUGCAGCAGUAAGGUGGCUUUUUAUCAAAGGUUUUUAUAUAAAUUUCCCACGUUACGGGGCCUUGUUUUGCAUGCUGAUGAAGAACUACUUAAAACUAA; result = 11.5

Series 3 — technique: universal PBM; molecule type: double-stranded DNA, one strand shown; matrix: in vitro; tested at: not given; direction: higher = stronger binding; quantity: E-score
Target: Sal-like protein 4, full length isoform B (SALL4, Homo sapiens, UniProt Q9UJQ4-2, residues 1-616)
Setting: 8-mer, flanks averaged, mean of replicates
Oligonucleotide = GAAGTTCC; result = -0.269
Oligonucleotide = AAGGAAAT; result = 0.241
Oligonucleotide = ACTCGTGG; result = -0.0669
Oligonucleotide = CGGCGTCA; result = -0.243
Oligonucleotide = GACTGCTA; result = -0.0833
Oligonucleotide = AGTGCGAA; result = -0.181
Oligonucleotide = GAAGTCGA; result = -0.0305
Oligonucleotide = CCATTCCC; result = -0.249
Oligonucleotide = CAAGAGAG; result = 0.0882
Oligonucleotide = CACCATGA; result = -0.128
Oligonucleotide = AAACCCCG; result = -0.0719
Oligonucleotide = AGACCTCC; result = -0.237
Oligonucleotide = AACAATGT; result = 0.209
Oligonucleotide = GTTGTCCA; result = 0.0283
Oligonucleotide = CTGAAAGA; result = 0.0248
Oligonucleotide = CTCCTTTA; result = 0.118
Oligonucleotide = TAGCCCTA; result = 0.0472
Oligonucleotide = CCGCCAGC; result = -0.263
Oligonucleotide = GACGAGGC; result = -0.249
Oligonucleotide = TCGAGCAA; result = 0.0261

Series 4 — target: CCND3, cyclin fold, Cln2 fusion (human); technique: yeast growth competition, sequencing; matrix: yeast; setting: weak parent motif; relative to: not given; direction: higher = stronger binding; quantity: normalised enrichment score
Parent: BRCA2 docking peptide (human); PSIKRNLLNEFDR
Change = F11M; result = 0.0302
Change = S2R; result = 0.0689
Change = K4R; result = 0.0801
Change = R5A; result = 0.109
Change = E10R; result = 0.0845
Change = F11A; result = 0.212
Change = F11N; result = 0.147
Change = N6Y; result = 0.0614
Change = L7W; result = 0.127
Change = K4N; result = 0.07
Change = R5N; result = 0.0117
Change = F11C; result = 0.0478
Change = F11Q; result = 0.0959
Change = N6K; result = 0.166
Change = F11Y; result = 0.122
Change = R5H; result = 0.00909
Change = P1T; result = 0.103
Change = L8E; result = 0.0629
Change = D12N; result = 0.183
Change = I3S; result = 0.121
Change = D12Y; result = 0.171
Change = D12H; result = 0.131
Change = K4Q; result = 0.011
Change = K4L; result = 0.0564
Change = F11V; result = 0.23

Series 5 — technique: protein binding microarray; molecule type: double-stranded DNA, one strand shown; matrix: in vitro; tested at: not given; relative to: not given; direction: higher = stronger binding; quantity: E-score
Target: Histone acetyltransferase KAT6A, winged helix 1, GST fusion (KAT6A, Homo sapiens, UniProt Q92794, residues 1-85)
Setting: 8-mer, flanks averaged, mean of 2 arrays, mostly near background
Target sequence (chain): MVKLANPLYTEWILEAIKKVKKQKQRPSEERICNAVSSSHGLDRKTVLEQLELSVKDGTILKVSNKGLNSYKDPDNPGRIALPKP
Oligonucleotide = ATATGTTG; result = -0.096
Oligonucleotide = CGATCATA; result = -0.00413
Oligonucleotide = ATTCTTAG; result = -0.146
Oligonucleotide = AATAGAGA; result = -0.108
Oligonucleotide = AAGTGCTA; result = -0.182
Oligonucleotide = GCGCCGAC; result = 0.418
Oligonucleotide = TACACGGA; result = 0.102
Oligonucleotide = AACACTAG; result = -0.00464
Oligonucleotide = ACATCGCG; result = 0.301
Oligonucleotide = CTTTATCC; result = -0.0968
Oligonucleotide = GGTTTACA; result = -0.0586
Oligonucleotide = GGCCGAAC; result = 0.204
Oligonucleotide = ATACCAGC; result = -0.135
Oligonucleotide = ACCGTATG; result = 0.126
Oligonucleotide = GCGCGTGA; result = 0.41
Oligonucleotide = CTATCAAC; result = 0.0219
Oligonucleotide = GGACCTCA; result = -0.13

Series 6 — technique: DHFR PCA, deep sequencing; matrix: yeast; together with: (+)-ABA 0 µM; relative to: wild-type fitted maximum; direction: higher = stronger binding; quantity: relative binding score
Target: ABI1, truncated, D143A, DHFR fusion (Arabidopsis thaliana)
Setting: methotrexate growth selection, single substitutions
Parent: PYL1, truncated, DHFR fusion (Arabidopsis thaliana); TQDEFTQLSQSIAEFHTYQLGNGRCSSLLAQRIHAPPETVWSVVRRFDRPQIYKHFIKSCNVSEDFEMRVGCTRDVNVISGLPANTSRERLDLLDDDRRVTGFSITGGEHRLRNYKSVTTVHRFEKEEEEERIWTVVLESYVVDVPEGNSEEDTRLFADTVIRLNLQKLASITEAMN
Change = D153M; result = -1.38%
Change = S42V; result = 3.09%
Change = S11T; result = 32.1%
Change = V76G; result = 0.909%
Change = R90S; result = -2.42%
Change = V76W; result = -2.88%
Change = E89Q; result = -4.99%
Change = V62W; result = -1.52%
Change = S80N; result = 38.7%
Change = I172S; result = -2.76%
Change = R74E; result = 1.92%
Change = V76C; result = 6.8%
Change = K126A; result = 51.3%
Change = A84C; result = 43.6%
Change = N22P; result = 58.3%
Change = S42F; result = -4.01%
Change = N177L; result = 13.3%
Change = R90P; result = -14%
Change = R69I; result = 18.5%

Some of these lines once more (series 4):
Change = R5N; result = 0.0117
Change = F11C; result = 0.0478
Change = F11Q; result = 0.0959
Change = N6K; result = 0.166
Change = F11Y; result = 0.122
Change = R5H; result = 0.00909
Change = P1T; result = 0.103
Change = L8E; result = 0.0629
Change = D12N; result = 0.183
